Assay results collected from several papers.
Every numbered part comes from another study and shows a few of its results, in no order.

Series 1 — method: protein binding microarray; form: double-stranded DNA, one strand shown; matrix: in vitro; tested at: not given; baseline: not given; reading: higher = stronger binding
Target: Histone acetyltransferase KAT6A, winged helix 2, GST fusion (KAT6A, Homo sapiens, UniProt Q92794, residues 85-181)
Notes: 8-mer, flanks averaged, mean of 2 arrays, mostly near background
Target sequence (chain): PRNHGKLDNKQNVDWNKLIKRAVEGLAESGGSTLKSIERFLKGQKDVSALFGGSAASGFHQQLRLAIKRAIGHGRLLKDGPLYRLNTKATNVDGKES
Oligonucleotide | E-score
AAGTGTGC | -0.0146
CGTCCGTA | -0.111
CACGAGTC | -0.1

Series 2 — method: universal PBM; form: double-stranded DNA, one strand shown; matrix: in vitro; tested at: 600 nM; reading: higher = stronger binding
Target: Sal-like protein 4, full length isoform A (SALL4, Homo sapiens, UniProt Q9UJQ4, residues 1-1053)
Sequence of UniProt Q9UJQ4 (whole entry, looked up): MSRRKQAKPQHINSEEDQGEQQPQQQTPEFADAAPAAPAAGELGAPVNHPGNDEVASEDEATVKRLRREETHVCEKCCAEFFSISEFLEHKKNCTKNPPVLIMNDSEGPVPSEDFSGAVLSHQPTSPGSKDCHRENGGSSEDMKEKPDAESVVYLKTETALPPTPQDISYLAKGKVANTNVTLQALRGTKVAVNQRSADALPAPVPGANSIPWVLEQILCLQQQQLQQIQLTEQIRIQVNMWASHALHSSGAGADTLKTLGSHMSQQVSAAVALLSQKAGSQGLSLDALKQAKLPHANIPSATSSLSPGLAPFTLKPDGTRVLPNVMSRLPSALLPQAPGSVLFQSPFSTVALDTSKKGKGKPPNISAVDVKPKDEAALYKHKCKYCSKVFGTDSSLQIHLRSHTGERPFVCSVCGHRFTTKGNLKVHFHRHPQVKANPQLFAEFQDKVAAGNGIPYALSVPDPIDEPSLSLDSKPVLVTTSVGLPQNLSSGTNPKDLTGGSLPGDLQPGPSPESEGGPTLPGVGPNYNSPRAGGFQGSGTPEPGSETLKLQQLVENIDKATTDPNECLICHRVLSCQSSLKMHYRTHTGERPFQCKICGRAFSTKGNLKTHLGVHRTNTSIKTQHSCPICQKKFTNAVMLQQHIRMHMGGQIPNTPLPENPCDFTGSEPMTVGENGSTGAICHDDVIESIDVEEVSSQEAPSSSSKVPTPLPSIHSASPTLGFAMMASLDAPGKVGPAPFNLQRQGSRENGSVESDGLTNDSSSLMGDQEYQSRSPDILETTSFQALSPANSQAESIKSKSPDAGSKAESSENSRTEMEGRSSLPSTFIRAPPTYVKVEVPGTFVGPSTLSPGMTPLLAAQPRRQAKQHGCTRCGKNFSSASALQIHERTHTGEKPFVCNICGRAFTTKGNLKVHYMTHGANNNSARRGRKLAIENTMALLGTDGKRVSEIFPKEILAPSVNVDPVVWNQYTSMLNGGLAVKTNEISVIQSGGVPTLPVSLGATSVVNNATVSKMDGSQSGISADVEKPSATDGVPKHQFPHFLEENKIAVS
Notes: 8-mer, flanks averaged, mean of replicates
Oligonucleotide | E-score
AAGAACTG | -0.0419
CCCCGTCA | -0.258
TCATACCA | 0.217
CGTGGGGC | -0.362

Other studies, line by line
TARDBP full length, His tag: TAR DNA-binding protein 43, full length, His tag (TARDBP, Homo sapiens, UniProt Q13148, residues 1-414)
Substance | target | assay | test system | setting | how to read | quantity | result
ACCGCU | TARDBP full length, His tag | RNA Bind-n-Seq | RNA, in vitro | 20 nM, 6-mer, flanks averaged, single round, together with: 150 mM LiCl | baseline: input library, higher = stronger binding | 6-mer enrichment (R) | 0.887
PhoQ, residues 284 288 289 292 302 303 SLANKL | PhoP, residues 12 14 15 18 19 TTLRV (Escherichia coli, UniProt P23836) | Sort-seq, measured: YFP reporter | E. coli | PhoQ-PhoP variant library, together with: 10 µM Mg2+ | baseline: high Mg2+ state, higher = stronger signaling | fold induction | 20.4
CUUGAG | TARDBP full length, His tag | RNA Bind-n-Seq | RNA, in vitro | 20 nM, 6-mer, flanks averaged, single round, together with: 150 mM LiCl | baseline: input library, higher = stronger binding | 6-mer enrichment (R) | 1
CUCAGC | TARDBP full length, His tag | RNA Bind-n-Seq | RNA, in vitro | 20 nM, 6-mer, flanks averaged, single round, together with: 150 mM LiCl | baseline: input library, higher = stronger binding | 6-mer enrichment (R) | 0.849

For quick reference, copied from above (other studies, line by line):
Substance | target | assay | test system | setting | how to read | quantity | result
CUCAGC | TARDBP full length, His tag | RNA Bind-n-Seq | RNA, in vitro | 20 nM, 6-mer, flanks averaged, single round, together with: 150 mM LiCl | baseline: input library, higher = stronger binding | 6-mer enrichment (R) | 0.849
